Experimental data gathered from unrelated publications.
Protocols differ between the studies behind these lines. ± marks the error that the study gave.

Compound = O=C([O-])CN1CCN(CC(=O)[O-])CCN(CC(=O)NCCc2ccc3c(c2)C2C=CCC2C(c2cc4c(cc2Br)OCO4)N3)CCN(CC(=O)[O-])CC1.[111In+3] (centres unmarked); system = mouse, Hec50 endometrial tumour, stomach; conditions = 2 h post injection; tissue uptake = 0.61 ± 0.18 %ID/g
Compound = CN(C)c1ccc(-c2nc3ccc(OCCCCCN4CCN5CCN(CC4)CC(=O)[O][Al]([18F])[O]C(=O)C5)cc3s2)cc1; system = ICR mouse, heart; conditions = intravenous, 10 min; tissue uptake = 4.12 ± 1.46 %ID/g
Compound = CC(C)[C@H](NC(=O)[C@@H]1CCCN1C(=O)[C@H](CCCNC(=N)N)NC(=O)[C@H](CS)NC(=O)[C@H](Cc1c[nH]c2ccccc12)NC(=O)[C@H](CCCNC(=N)N)NC(=O)[C@@H](Cc1ccccc1)NC(=O)[C@H](Cc1c[nH]cn1)NC(=O)[C@H](CCC(=O)O)NC(=O)[C@H](CS)NC(=O)[C@H](CS)NC(=O)CNC(=O)[C@@H]1CC(=O)N[C@@H](CCCNC(=N)N)C(=O)NCC(=O)N[C@@H](CC(=O)O)C(=O)N[C@H](Cc2ccc(O)cc2)C(=O)N1)C(N)=O [technetium-99m labelled]; system = C57 mouse, female, B16/F1 melanoma, stomach; conditions = intravenous, 0.037 MBq, 4 h; tissue uptake = 2.94 ± 0.88 %ID/g
Compound = CCCC[C@H](NC(=O)CNC(=O)CNC(=O)CN1CCN(CC(=O)O)CCN(CC(=O)O)CCN(CC(=O)O)CC1)C(=O)N[C@H]1CC(=O)NCCCC[C@@H](C(N)=O)NC(=O)[C@H](Cc2c[nH]c3ccccc23)NC(=O)[C@H](CCCNC(=N)N)NC(=O)[C@@H](Cc2ccccc2)NC(=O)[C@H](Cc2c[nH]cn2)NC1=O [lead-203 labelled]; system = C57 mouse, brain; conditions = intravenous, 0.056 MBq, 4 h; tissue uptake = 0.04 ± 0.01 %ID/g
Compound = CCCC[C@H](NC(=O)CNC(=O)CNC(=O)CN1CCN(CC(=O)O)CCN(CC(=O)O)CCN(CC(=O)O)CC1)C(=O)N[C@H]1CC(=O)NCCCC[C@@H](C(N)=O)NC(=O)[C@H](Cc2c[nH]c3ccccc23)NC(=O)[C@H](CCCNC(=N)N)NC(=O)[C@@H](Cc2ccccc2)NC(=O)[C@H](Cc2c[nH]cn2)NC1=O [copper-64 labelled]; system = female C57 mouse, B16/F1 melanoma, skin; conditions = intravenous, 0.037 MBq, 2 h; tissue uptake = 1.6 ± 0.35 %ID/g
Compound = CN1C(=O)[C@@H](Cc2ccc(O)c(I)c2)NC(=O)CNC(=O)[C@H](Cc2ccc3ccccc3c2)NC(=O)[C@H](CCCNC(=N)N)NC(=O)[C@H]1CCCNC(=O)c1ccc(CNC(=O)CN2CCN(CC(=O)O)CCN(CC(=O)O)CCN(CC(=O)O)CC2)cc1 [lutetium-177 labelled]; system = female CB-17 SCID mouse, Daudi xenograft, small intestine; conditions = intravenous, 6 h, CXCR4 blocking, with: AMD3100 2 mg/kg coinjected; tissue uptake = 0.17 ± 0.004 %ID/g
Compound = CC(C)[C@H](NC(=O)[C@@H]1CCCN1C(=O)[C@H](CCCNC(=N)N)NC(=O)[C@H](CS)NC(=O)[C@H](Cc1c[nH]c2ccccc12)NC(=O)[C@H](CCCNC(=N)N)NC(=O)[C@@H](Cc1ccccc1)NC(=O)[C@H](Cc1c[nH]cn1)NC(=O)[C@H](CCC(=O)O)NC(=O)[C@H](CS)NC(=O)[C@H](CS)NC(=O)[C@@H]1CC(=O)N[C@@H](CCCNC(=N)N)C(=O)NCC(=O)N[C@@H](CC(=O)O)C(=O)N[C@H](Cc2ccc(O)cc2)C(=O)N1)C(N)=O [technetium-99m labelled]; system = C57 mouse, female, B16/F1 melanoma, spleen; conditions = intravenous, 0.037 MBq, 0.5 h; tissue uptake = 1.66 ± 0.25 %ID/g
Compound = CCCC[C@H](NC(=O)CNC(=O)CNC(=O)CN1CCN(CC(=O)O)CCN(CC(=O)O)CC1)C(=O)N[C@H]1CC(=O)NCCCC[C@@H](C(N)=O)NC(=O)[C@H](Cc2c[nH]c3ccccc23)NC(=O)[C@H](CCCNC(=N)N)NC(=O)[C@@H](Cc2ccccc2)NC(=O)[C@H](Cc2c[nH]cn2)NC1=O [copper-64 labelled]; system = C57 mouse female B16/F1 melanoma, intestines; conditions = intravenous, 0.037 MBq, 4 h; tissue uptake = 1.19 ± 0.23 %ID

Some of these lines once more:
Compound = CCCC[C@H](NC(=O)CNC(=O)CNC(=O)CN1CCN(CC(=O)O)CCN(CC(=O)O)CC1)C(=O)N[C@H]1CC(=O)NCCCC[C@@H](C(N)=O)NC(=O)[C@H](Cc2c[nH]c3ccccc23)NC(=O)[C@H](CCCNC(=N)N)NC(=O)[C@@H](Cc2ccccc2)NC(=O)[C@H](Cc2c[nH]cn2)NC1=O [copper-64 labelled]; system = C57 mouse female B16/F1 melanoma, intestines; conditions = intravenous, 0.037 MBq, 4 h; tissue uptake = 1.19 ± 0.23 %ID
